# Measured values gathered from unrelated publications.
# Numbers after ± are the reported error.
Compound,cell line,assay,system,conditions,how to read,measurement,value
CC(C)=CCc1c2c(c(O)c3c(=O)c(-c4ccc(O)cc4)coc13)CC(C(C)(C)O)O2 (centres unmarked),RAW264.7,"cell growth or viability, MTT",,"100 µg/mL, 24 h",,viability,7.78%
COC(=O)C1CN1S(=O)(=O)c1ccc2cc(OC)ccc2c1 (centres unmarked),Balb/c 3T3 fibroblasts,"cytotoxicity, neutral red uptake",DMEM with 5% FBS,24 h,,IC50,150 ± 8 µM
CC1(C)CCCC(C)(C2CCC3(C)C2C(O)CC2C4(C)CCC(OC(=O)Nc5ccccc5)C(C)(C)C4C(O)CC23C)O1 (centres unmarked),Hep3B,"cell growth or viability, MTT",,24 h,,IC50,> 30 µM
CNC(=O)C(Cc1ccccc1)NC(=O)C(O)(Cc1ccccc1)CN(Cc1ccc(Br)cc1)NC(=O)C(NC(=O)OC)C(C)(C)C (centres unmarked),Caco-2,,,pH 7.4,relative to: B-to-A over A-to-B,efflux ratio,0.8
CC(=O)N[C@H](C(=O)N[C@H](C(=O)N[C@@H](CCCNC(=N)N)C(=O)N1Cc2ccccc2C[C@H]1C(=O)N[C@@H](Cc1ccccc1)C(N)=O)C1CCCCC1)C(C)C,human PBMC,"Bio-Plex multiplex, item: IL-15",,"250 µg/mL, 24 h",,cytokine level,< 0.5 pg/mL
[99Tc+].[C-]#[N+]CC(C)(C)OC.[C-]#[N+]CC(C)(C)OC.[C-]#[N+]CC(C)(C)OC.[C-]#[N+]CC(C)(C)OC.[C-]#[N+]CC(C)(C)OC.[C-]#[N+]CC(C)(C)OC,"rat sandwich-cultured hepatocytes, noninfected",,,10 min,,in vitro biliary clearance,4.07 mL/min/kg
CC(C)(C)OC(=O)NCC(=O)OC1CC2(C)C(CC(O)C3C(C4(C)CCCC(C)(C)O4)CCC32C)C2(C)CCC(OC(=O)CNC(=O)OC(C)(C)C)C(C)(C)C12 (centres unmarked),Hep3B,"cell growth or viability, MTT",,24 h,,IC50,> 30 µM
Nc1ncnc2c1c(Br)cn2[C@H]1C[C@H](O)[C@@H](CO)O1,MRC-5 SV2,"cytotoxicity, resazurin",medium with 5% FBS,72 h,,EC50,6.1 ± 0.7 µM
CN(C)C(=O)C1CN1S(=O)(=O)c1ccc2c(N(C)C)cccc2c1 (centres unmarked),Balb/c 3T3 fibroblasts,"cytotoxicity, neutral red uptake",DMEM with 5% FBS,24 h,,IC50,13 ± 1 µM
Nc1ncnc2c1c(C(F)(F)F)cn2[C@@H]1O[C@H](CO)[C@@H](O)[C@H]1O,MRC-5 SV2,"cytotoxicity, resazurin",medium with 5% FBS,72 h,,EC50,4.32 µM
N=C(N)NCCC[C@@H]1NC(=O)[C@H](CCCNC(=N)N)NC(=O)[C@H](CCCNC(=N)N)NC(=O)[C@H](Cc2ccc3ccccc3c2)NC(=O)[C@H](Cc2c[nH]c3ccccc23)NC(=O)[C@H](Cc2ccc3ccccc3c2)NC(=O)[C@H](CCCNC(=N)N)NC1=O,human red blood cells,hemolysis,,,,HC50,175 µg/mL
CCCC[C@H](NC(=O)[C@H](CC(=O)O)NC(=O)[C@H](CC(=O)O)NC(=O)[C@H](CCC(=O)O)NC(=O)[C@H](Cc1ccc(O)cc1)NC(=O)[C@H](CC(=O)O)NC(=O)[C@H](CC(=O)O)NC(=O)[C@H](CCC(=O)O)NC(=O)[C@H](CC(C)C)NC(=O)[C@H](CCC(=O)O)NC(=O)[C@H](CCC(=O)O)NC(=O)c1ccc2c(c1)C1(OC2=O)c2ccc(O)cc2Oc2cc(O)ccc21)C(=O)N[C@@H](CCC(=O)O)C(=O)N[C@@H](CCC(=O)O)C(N)=O,A-431 microinjected,,,median,,half-life,35 min
CC1(C)CCCC(C)(C2CCC3(C)C2C(O)CC2C4(C)CCC(O)C(C)(C)C4C(OC(=O)NC4CCCCC4)CC23C)O1 (centres unmarked),Hep3B,"cell growth or viability, MTT",,24 h,,IC50,> 30 µM
C=C(C)C(=O)Nc1ccc(-c2c(-c3ccc(Oc4nccc(C)n4)cc3)c3c(N)ncnc3n2C)cc1,Caco-2,,,,,Papp B-A,6.2 ×10⁻⁶ cm/s
CC(C)=CCc1cc(-c2coc3cc(O)c(CC=C(C)C)c(O)c3c2=O)ccc1O,RAW264.7,"cell growth or viability, MTT",,"100 µg/mL, 24 h",,viability,5.55%
O=C(/C=C/c1ccc(O)cc1)OC(CO)C(=O)O (centres unmarked),"HeLa, SW480 and HCT-116",CCK-8,,"concentration not given, 12 h",,cytotoxicity,not toxic
CC[C@H](C)[C@H](NC(=O)[C@H](C)NC(=O)CNC(=O)[C@H](Cc1ccccc1)NC(=O)[C@H](CC(N)=O)NC(=O)[C@H](CC(N)=O)NC(=O)[C@H](CO)NC(=O)[C@H](CO)NC(=O)[C@H](Cc1c[nH]cn1)NC(=O)[C@@H](NC(=O)[C@H](CC(C)C)NC(=O)[C@H](Cc1ccccc1)NC(=O)[C@H](CC(N)=O)NC(=O)[C@H](C)NC(=O)[C@H](CC(C)C)NC(=O)[C@H](CCCNC(=N)N)NC(=O)[C@H](CCC(N)=O)NC(=O)[C@@H](NC(=O)[C@H](C)NC(=O)[C@@H]1CSSC[C@H](NC(=O)[C@@H](N)CCCCN)C(=O)N[C@@H](CC(N)=O)C(=O)N[C@@H]([C@@H](C)O)C(=O)N[C@@H](C)C(=O)N[C@@H]([C@@H](C)O)C(=O)N1)[C@@H](C)O)C(C)C)C(=O)N[C@@H](CC(C)C)C(=O)N[C@@H](CO)C(=O)N[C@@H](CO)C(=O)N[C@H](C(=O)N[C@@H](CC(N)=O)C(=O)N[C@H](C(=O)NCC(=O)N[C@@H](CO)C(=O)N[C@@H](CC(N)=O)C(=O)N[C@H](C(=O)N[C@@H](Cc1ccc(O)cc1)C(N)=O)[C@@H](C)O)C(C)C)[C@@H](C)O,INS-1,AlamarBlue,,"21 µM, 24 h",relative to: medium alone,viability,62 ± 4%
CN1CCc2cc(Nc3ncc(C(F)(F)F)c(NCc4cc[nH]n4)n3)ccc2C1,GL261,,,"3 µM, 72 h",,LDH release,increased
COc1ccc(/C=C\C(=O)OC2CCC3(C)C(C(O)CC4(C)C3CC(O)C3C(C5(C)CCCC(C)(C)O5)CCC34C)C2(C)C)cc1 (centres unmarked),Hep3B,"cell growth or viability, MTT",,24 h,,IC50,> 30 µM
N=C(N)NCCC[C@@H]1NC(=O)[C@H](CCCNC(=N)N)NC(=O)[C@H](CCCNC(=N)N)NC(=O)[C@H](Cc2ccc3ccccc3c2)NC(=O)[C@H](Cc2ccc3ccccc3c2)NC(=O)[C@H](Cc2c[nH]c3ccccc23)NC(=O)[C@H](CCCNC(=N)N)NC1=O,human red blood cells,hemolysis,,,,HC50,150 µg/mL
CC(C)[C@H](NC(=O)OC(C)(C)C)C(=O)OC1CCC2(C)C(C(O)CC3(C)C2CC(O)C2C(C4(C)CCCC(C)(C)O4)CCC23C)C1(C)C (some centres unmarked),Hep3B,"cell growth or viability, MTT",,24 h,,IC50,> 30 µM
CC(C)Oc1ncnc2c1c(Cl)cn2[C@@H]1O[C@H](CO)[C@@H](O)[C@H]1O,MRC-5 SV2,"cytotoxicity, resazurin",medium with 5% FBS,72 h,,EC50,> 64 µM
CCCN(CC(=O)N(CCC)CC(=O)N(CCC)CC(=O)N(CCC)CC(=O)N(CC(=O)N(CCC)CC(=O)N(CCC)CC(=O)N(CCC)CC(=O)N(CCC)CC(=O)N(CC(N)=O)Cc1cn(CCCNC(=O)CCCOc2cccc(-c3nc4ccc(-c5nc6ccc(N7CCN(C)CC7)cc6[nH]5)cc4[nH]3)c2)nn1)Cc1cn(CCCNC(=O)CCCOc2cccc(-c3nc4ccc(-c5nc6ccc(N7CCN(C)CC7)cc6[nH]5)cc4[nH]3)c2)nn1)C(=O)CNCc1cn(CCCNC(=O)CCCOc2cccc(-c3nc4ccc(-c5nc6ccc(N7CCN(C)CC7)cc6[nH]5)cc4[nH]3)c2)nn1,C2C12,flow cytometry,,"5 µM, 14 h",,propidium iodide-only positive cells,4.7%
CC(C)(C)n1cc(CN(Cc2cn(CCOCCOCCOCCOCCOCCO)nn2)Cc2cn(C(C)(C)C)nn2)nn1,OVCAR-5,"cellular uptake, LC-ESI-MS/MS",,"200 µM, 10 min, together with: CuSO4 100 µM and ascorbate 500 µM",,intracellular concentration,8.6 ± 0.2 µM
CCCCCc1ccc(S(=O)(=O)N2CC2C(=O)N(C)C)cc1 (centres unmarked),Balb/c 3T3 fibroblasts,"cytotoxicity, neutral red uptake",DMEM with 5% FBS,24 h,,IC50,13 ± 2 µM
COc1cc(CN2CCN(c3cccc(Cl)c3)CC2)c2cc3[n+](cc2c1O)CCc1cc2c(cc1-3)OCO2,MDCK,"cell growth or viability, SRB",,48 h,,CC50,145 µg/mL
CCCN(CC(=O)N(CCC)CC(=O)N(CCC)CC(=O)N(CCC)CC(=O)N(CC(=O)N(CCC)CC(=O)N(CCC)CC(=O)N(CCC)CC(=O)N(CCC)CC(=O)N(CC(=O)N(CCC)CC(=O)N(CCC)CC(=O)N(CCC)CC(=O)N(CCC)CC(=O)N(CC(N)=O)Cc1cn(CCCNC(=O)CCCOc2cccc(-c3nc4ccc(-c5nc6ccc(N7CCN(C)CC7)cc6[nH]5)cc4[nH]3)c2)nn1)Cc1cn(CCCNC(=O)CCCOc2cccc(-c3nc4ccc(-c5nc6ccc(N7CCN(C)CC7)cc6[nH]5)cc4[nH]3)c2)nn1)Cc1cn(CCCNC(=O)CCCOc2cccc(-c3nc4ccc(-c5nc6ccc(N7CCN(C)CC7)cc6[nH]5)cc4[nH]3)c2)nn1)C(=O)CNCc1cn(CCCNC(=O)CCCOc2cccc(-c3nc4ccc(-c5nc6ccc(N7CCN(C)CC7)cc6[nH]5)cc4[nH]3)c2)nn1,C2C12,flow cytometry,,"5 µM, 48 h",,ligand- and PI-positive cells,1.3%
COC(=O)C1CN1S(=O)(=O)c1ccc(-c2ccccc2)cc1 (centres unmarked),Balb/c 3T3 fibroblasts,"cytotoxicity, neutral red uptake",DMEM with 5% FBS,24 h,,IC50,40 ± 5 µM
O=C1OC2(c3ccccc31)c1cc(I)c(O)c(I)c1Oc1c2cc(I)c(O)c1I,3D forebrain organoid,morphology,,3.0 µM,,toxicity,not toxic
CC1(C)CCCC(C)(C2CCC3(C)C2C(O)CC2C4(C)CCC(OC(=O)c5cn(-c6ccccc6)nn5)C(C)(C)C4C(O)CC23C)O1 (centres unmarked),Hep3B,"cell growth or viability, MTT",,24 h,,IC50,> 30 µM
Cc1ccc(S(=O)(=O)N2CC2C(=O)N(C)C)c2ccccc12 (centres unmarked),Balb/c 3T3 fibroblasts,"cytotoxicity, neutral red uptake",DMEM with 5% FBS,24 h,,IC50,12 ± 3 µM
CNC(=O)C(NC(=O)C(O)(Cc1ccccc1)CN(Cc1ccc(Br)cc1)NC(=O)C(NC(=O)OC)C(C)(C)C)C(C)(C)C (centres unmarked),Caco-2,,,"pH 7.4, 1% BSA in receiver",,Papp A-to-B,2.5 ± 0.1 ×10⁻⁶ cm/s

# For quick reference, copied from above:
Compound,cell line,assay,system,conditions,how to read,measurement,value
C=C(C)C(=O)Nc1ccc(-c2c(-c3ccc(Oc4nccc(C)n4)cc3)c3c(N)ncnc3n2C)cc1,Caco-2,,,,,Papp B-A,6.2 ×10⁻⁶ cm/s
[99Tc+].[C-]#[N+]CC(C)(C)OC.[C-]#[N+]CC(C)(C)OC.[C-]#[N+]CC(C)(C)OC.[C-]#[N+]CC(C)(C)OC.[C-]#[N+]CC(C)(C)OC.[C-]#[N+]CC(C)(C)OC,"rat sandwich-cultured hepatocytes, noninfected",,,10 min,,in vitro biliary clearance,4.07 mL/min/kg
